Experimental data gathered from unrelated publications.
Parts stem from different laboratories: compare values within a part only. Several values in a cell are separate wells, animals, samples, runs or records. ± gives the spread as reported.
Sequence of UniProt P11712 (whole entry, looked up): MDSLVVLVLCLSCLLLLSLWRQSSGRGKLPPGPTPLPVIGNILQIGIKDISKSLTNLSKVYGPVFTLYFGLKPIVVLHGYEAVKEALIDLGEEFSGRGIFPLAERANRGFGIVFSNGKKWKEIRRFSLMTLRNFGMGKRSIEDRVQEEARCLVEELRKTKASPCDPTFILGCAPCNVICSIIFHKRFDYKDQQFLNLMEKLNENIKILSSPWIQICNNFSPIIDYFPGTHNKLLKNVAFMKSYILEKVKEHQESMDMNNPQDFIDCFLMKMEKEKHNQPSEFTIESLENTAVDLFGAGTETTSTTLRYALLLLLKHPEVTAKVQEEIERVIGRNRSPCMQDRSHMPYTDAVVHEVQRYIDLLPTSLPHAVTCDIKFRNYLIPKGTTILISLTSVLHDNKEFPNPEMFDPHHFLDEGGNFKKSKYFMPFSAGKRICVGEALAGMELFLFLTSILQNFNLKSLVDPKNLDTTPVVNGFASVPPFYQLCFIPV

Block 1
Target: Replicase polyprotein 1ab, main protease (rep, Severe acute respiratory syndrome coronavirus 2, UniProt P0DTD1)
Observed: enzyme activity
Action: inhibitor
Concentration: 20 µM
Notes: hit confirmation, no DTT
Measurement: inhibition
CCN(CC)C(=S)S: 91.8%
O=[N+]([O-])c1ccc(O)c2ncccc12: 55.3%
COC(=O)/C=C/c1cc(O)ccc1O: 52.7%

Block 2
Target: Replicase polyprotein 1ab, nsp13 helicase (rep, Severe acute respiratory syndrome coronavirus 2, UniProt P0DTD1)
Observed: helicase activity
Action: inhibitor
Method: DTT high-content helicase
Organism: SARS-CoV-2
Concentration: 20 µM
Measurement: inhibition
CO/N=C(\C(=O)N[C@@H]1C(=O)N2C(C(=O)O)=C(CSC(=O)c3ccco3)CS[C@H]12)c1csc(N)n1: 6.99%
CC(C)(C)c1ccc(S(=O)(=O)/C=C/C#N)cc1: -9.44%
Cc1ccc(-n2sc(=O)n(Cc3ccc(F)cc3)c2=O)cc1: -7.2%
CCn1c(N)c(C(=O)NC)c(=O)c2ccc(C#C[C@@](C)(O)COC)nc21: 1.64%
Cc1nc(C#Cc2ccnc(Cl)c2)c(C)n1-c1ccc(OC(F)(F)F)cc1: -1.97%
Nc1nnc(Sc2ncc([N+](=O)[O-])s2)s1: -9.08%
CCOC(=O)C1=C(N)Oc2ccc(Br)cc2[C@H]1[C@H](C#N)C(=O)OCC: -9.28% and -11.6%
O=C1C(c2ccccn2)=[N+]([O-])c2ccccc21: 3.81%
N#CSc1cc(SC#N)c(N)nc1N: -12%
O=C1C=Cc2cc(Br)ccc2C1=O: -12.4%
CN=c1nc(-c2ccccc2)n(-c2ccccc2)s1: -3.61%
CC(=O)[O][Pt]([NH2])([Cl])([Cl])([NH]C1CCCCC1)[O]C(C)=O: -2.87%
Cc1ccc(S(=O)(=O)/C=C/C#N)cc1: -12.6%
C=CC(=O)c1ccc2ccccc2c1: -8.9%
CC(=O)OC[C@H]1O[C@@H]([S-])[C@H](OC(C)=O)[C@@H](OC(C)=O)[C@@H]1OC(C)=O.CCP(CC)CC.[Au+]: -5.15%

Other studies, line by line
rep main protease: Replicase polyprotein 1ab, main protease (rep, Severe acute respiratory syndrome coronavirus 2, UniProt P0DTD1)
gag capsid C-terminal domain: Gag polyprotein, capsid C-terminal domain (gag, UniProt P12493)
Cc1cc(/C=C/C#N)cc(C)c1Nc1nc(Nc2ccc(/C=C/C#N)cc2)ncc1N
EC50 (HIV-1; viral replication, single-round infection; RT mutant E40K): 0.8 ± 0.1 nM

O=C1NC(=S)N(c2ccccc2)C(=O)/C1=C/c1ccc(-c2ccc(C(=O)O)c(Cl)c2)o1
IC50 (Replicase polyprotein 1ab, nsp13 helicase (rep, Severe acute respiratory syndrome coronavirus 2, UniProt P0DTD1); helicase ATPase activity, inhibitor, Kinase-Glo luminescence; 60 min, added: 2.5 µM ATP): 40 µM

COc1ccc(-c2nc3ccccc3nc2-c2ccccc2)cc1
IC50 (Severe acute respiratory syndrome coronavirus 2; viral entry, inhibitor; pseudovirus): 19.7 µM

O=C1[C@H]2CSC3(C(=O)c4ccccc4C3=O)N2C(=O)[C@H]2CSC3(C(=O)c4ccccc4C3=O)N12
inhibition (rep main protease; viral replication, mKate2 reporter; SARS-CoV-2; 20 µM): -0.459%

CC[C@H](C)[C@H](N)C(=O)N[C@H](C(=O)N[C@@H](Cc1ccccc1)C(=O)N[C@H]1CSc2ccc(cc2)-c2ccc(cc2)SC[C@@H](C(=O)N[C@@H](Cc2ccc(O)cc2)C(=O)N[C@@H](Cc2ccc(O)cc2)C(=O)NCC(=O)N[C@@H](CCCCN)C(=O)N[C@@H](CCCCN)C(=O)N[C@@H](CCCCN)C(N)=O)NC(=O)[C@H](CC(C)C)NC(=O)[C@H](CC(C)C)NC(=O)[C@H](CC(=O)O)NC1=O)[C@@H](C)O
Kd (gag capsid C-terminal domain; binding, biolayer interferometry; PBS; pH 7.4, 30 °C, biotinylated peptide immobilised, added: C-CA 5 to 100 µM): 61 ± 35 µM

O=C(CSc1nc2ccccc2c(=O)[nH]1)Nc1ccccc1C(=O)O
IC50 (SARS-CoV-2; viral cytopathic effect; Vero E6, NRC-03-nhCoV): 104 µM

CC[C@H](C)[C@H](N)C(=O)N[C@H](C(=O)N[C@@H](Cc1ccccc1)C(=O)N[C@H]1CSc2c(F)c(F)c(c(F)c2F)SC[C@@H](C(=O)N[C@@H](Cc2ccc(O)cc2)C(=O)N[C@@H](Cc2ccc(O)cc2)C(=O)NCC(=O)N[C@@H](CCCCN)C(=O)N[C@@H](CCCCN)C(=O)N[C@@H](CCCCN)C(N)=O)NC(=O)[C@H](CC(C)C)NC(=O)[C@H](CC(C)C)NC(=O)[C@H](CC(=O)O)NC1=O)[C@@H](C)O
Kd (gag capsid C-terminal domain; binding, biolayer interferometry; PBS; pH 7.4, 30 °C, biotinylated peptide immobilised, added: C-CA 5 to 100 µM): 12 ± 0.6 µM

CC(C)C[C@H](NC(=O)CNC(=O)c1cc(Cl)ccc1Cl)B(O)O
GFP-positive cells (HEK-293T/ACE2; pseudovirus infection; VSV pseudotyped with SARS-CoV-2 spike; concentration not given; baseline: vehicle-treated): 22%

CNC(=O)[C@@H](NC(=O)[C@H](CC(C)C)[C@H](O)C(=O)NO)C(C)(C)C
remaining activity (Daboia russelii venom proteases (SVMP); protease activity, inhibitor; MP population; 10 µM, added: azocasein substrate; baseline: venom alone): 0%

Cc1cc(/C=C/C#N)cc(C)c1-n1cnc2cnc(Nc3ccc4cc(C#N)ccc4c3)nc21
EC50 (HIV-1; viral replication, single-round infection; RT mutant K101P): 65.9 ± 6.4 nM

COc1ccccc1/C=C1\C(=O)Nc2ccccc21
inhibition (rep main protease; viral replication, Gluc reporter; SARS-CoV-2; 20 µM): -0.926%

Cn1cnc(Cn2c(=O)[nH]/c(=N\c3cc4cn(C)nc4cc3Cl)n(Cc3cc(F)c(F)cc3F)c2=O)n1
IC50 (Cytochrome P450 2C9 (CYP2C9, Homo sapiens, UniProt P11712); inhibitor; human liver microsomes; 0 min preincubation, added: diclofenac 12 µM): > 100 µM

Repeated from above (block 2):
CO/N=C(\C(=O)N[C@@H]1C(=O)N2C(C(=O)O)=C(CSC(=O)c3ccco3)CS[C@H]12)c1csc(N)n1: 6.99%
O=C1C=Cc2cc(Br)ccc2C1=O: -12.4%
